Results of several laboratories.
Each numbered part is a random draw from the data of one study; scales do not carry over between parts. Positions count from the first letter of the parent shown.

Set 1 — method: RNA Bind-n-Seq; molecule type: RNA; medium: in vitro; tested at: 365 nM; reference: no-protein control; direction: higher = stronger binding; endpoint: RBNS enrichment (R)
Target: RNA binding protein fox-1 homolog 2, RRM domain, GST-SBP tag (RBFOX2, Homo sapiens, UniProt O43251-10, residues 100-194)
Notes: natural RNA segment, single round, ends assumed
Residues (chain): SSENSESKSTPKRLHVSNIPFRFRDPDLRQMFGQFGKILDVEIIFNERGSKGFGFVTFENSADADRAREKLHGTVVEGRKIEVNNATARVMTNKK
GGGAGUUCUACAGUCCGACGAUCUCUUUGCUGUUUGUAGUAGAGACAUUUUGAAUGAAACUUGGCACUGCUUGAUUCAAAACUGUGGAAACCAGAUCUGUUUAGUCUCCUGUUUGUAUGCGUUUGCUAAUGGUUGGAAUUCUCGGGUGCCAA: 4.61
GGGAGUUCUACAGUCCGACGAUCCUUGUAUCUUUAUUUGGUAUUCAUACUACUAGUAGCAAAAUACAGGUUUUUUGUUUUGUUUUGUUUUGUUUUGGCUUCAUAGAGUAUCUCAAAUUGAAACUUUUCUGCACUGGAAUUCUCGGGUGCCAA: 0.623
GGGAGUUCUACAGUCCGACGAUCAGCCUGGCCCAGCUCCCCCGGGAGGGGCCCGCUUGCCUCGGCUCCUGCUGCACCAACCCAGCCGCUGCCCGGCGCCCUCUGUCCUGACUUCAGGGGCUGCCCGCUCCCAGUGGAAUUCUCGGGUGCCAA: 0.552
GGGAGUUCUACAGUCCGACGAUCCUGGGGCAGGGGUCAGCCACUGUCCCAAUCAGUCCUUUCUGAAGGAGAAACCCAUUCCACAUUAACAAAUUUAUUACAGUACAGGGAACAUGGAAUAAAGGAAAGUUUACUGGAAUUCUCGGGUGCCAA: 0.377
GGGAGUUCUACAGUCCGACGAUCGUGGGCAGACCUCUUAACCUUAUAGAUGGUCAGUGCGACCUCUAGUGGUCUCAUGGCGUGUGGCACAACCCCCCUCCCCAGGGCUCAGCUUAAUGUGCCCUCUCCCCCCAUGGAAUUCUCGGGUGCCAA: 0.606
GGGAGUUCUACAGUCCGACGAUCUAUUUGGGGGGGAAUAAGAUUAUAUGGACUUUCUUGCAAGCAACAAGCUAUUUUUUAAAAAAAACUAUUUAACAUUCUUUUGUUUAUAUUGUUUUGUCUCCUAAAUUGUUUGGAAUUCUCGGGUGCCAA: 2.63
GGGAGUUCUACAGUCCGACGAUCGUUCUUGCAUGUGGAUGUGUGUUUCCCCAGGCAGACGGCCCCUCUCUUCCCAGCACUUCCCUGCCUCCCCCAGGCCUCAGGCCCAGCACCCAGUUCCUCCUCACAUGGCAUGGAAUUCUCGGGUGCCAA: 6.13
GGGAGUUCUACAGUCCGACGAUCCACGAUAUCAGGAGUGAAGCAGACGCUGGCCUUUCCAUGAAUAGCCACCACAUGGCCCAGCAUCUCUGCCAAACACAGUUGCUUCUAGUCUGGCCAGUGCCAAGAGACAAUGGAAUUCUCGGGUGCCAA: 0.289
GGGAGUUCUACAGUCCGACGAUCUCAGAGUUAUUUGUUAAUUUUUAAGGAAAUUAUAUACUUAAUAUGUAUUGAUUAAAAGAAACAUUUCAGAAAUAAAAUUUCAACAUUGUUCAUUUUCUCUGAUAAAUCAGUGGAAUUCUCGGGUGCCAA: 0.796
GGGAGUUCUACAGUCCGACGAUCGAUAGUUGCUCACACACCAUUGAGCAAACGUGUCUUGUUCCUUGUAUCUCUUUUCUUCCAGCCCUGAGUGGCUGCGCUGCUGCCAUAUGUGACAAGUGGUCCUCACCAGUUGGAAUUCUCGGGUGCCAA: 0.222
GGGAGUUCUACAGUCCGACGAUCACUCAUACACGUAAUGUCUGCUUUUCGUACAGAACUAGCCAAUGUAAAAACAGUUCACCUGUAAAUACUUUUUCCUUUUUCACCGUUGUAUUAUACAUGUAUAUGCUGGGUGGAAUUCUCGGGUGCCAA: 0.292
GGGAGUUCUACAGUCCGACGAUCCUUGCUUCCAUAUUGGAGCUCCUCAGUAGGAACAGCUGUGGCACUGGGCUGGGGACCAGGAAGAAGUCACAAGUGGUGGGAGUAUCCUAGGGACAUGAGUCGUGCCCAGGUGGAAUUCUCGGGUGCCAA: 0.79

Set 2 — method: competition protein-binding microarray; molecule type: double-stranded DNA, one strand shown; medium: in vitro; tested at: 2 µM; together with: Pho4 competitor, 0.05 µM; direction: higher = stronger binding; endpoint: fluorescence intensity
Target: Centromere-binding protein 1, full length, His-tagged (CBF1, Saccharomyces cerevisiae, UniProt P17106, residues 1-351)
UniProt P17106, sequence (whole entry, looked up): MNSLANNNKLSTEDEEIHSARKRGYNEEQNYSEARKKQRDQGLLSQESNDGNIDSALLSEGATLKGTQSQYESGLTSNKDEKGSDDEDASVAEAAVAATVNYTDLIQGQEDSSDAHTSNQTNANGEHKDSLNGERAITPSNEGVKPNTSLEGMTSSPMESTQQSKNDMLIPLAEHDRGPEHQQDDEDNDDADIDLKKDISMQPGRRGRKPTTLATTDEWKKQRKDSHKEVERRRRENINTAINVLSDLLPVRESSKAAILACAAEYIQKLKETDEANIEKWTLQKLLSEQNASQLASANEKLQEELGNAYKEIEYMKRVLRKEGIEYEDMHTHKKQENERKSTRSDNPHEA
Notes: whole 60-bp probe, lowest competitor level
ACAGGCAGGGGGTCCCACGATTCCTGTGCCGACATTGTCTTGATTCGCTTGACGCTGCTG: 68.1 a.u.
CTTCTGTAAATTTTTCACGTGTCTTGACGCGCCCCGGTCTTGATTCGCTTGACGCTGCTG: 839 a.u.
TGTTAGGTTTACCAGAACGTGGCCGATTTCTGCCAGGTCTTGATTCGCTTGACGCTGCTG: 79.3 a.u.
CAGTTAATTTTGGATCTCGTGACGGGTAATCTTCTTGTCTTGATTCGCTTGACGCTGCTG: 1700 a.u.
CGGGGTTAAGTTTGTAACGTGGGTGGCTTGCAGCAGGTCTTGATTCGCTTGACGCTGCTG: 74.1 a.u.
CTTCTGTAAATTTGTCACCAAACTTGACGCGCCCCGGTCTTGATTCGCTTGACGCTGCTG: 95.6 a.u.
TCGGAGTACAATCCAGTCGTGCCAGTCGAATGGTAGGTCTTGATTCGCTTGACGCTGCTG: 67.8 a.u.
CTTCTGTAAATTTTTCACGTGCCCTGACGCGCCCCGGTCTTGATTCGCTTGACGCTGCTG: 935 a.u.
TATTGTTTTCGTTATCGCGTGGCAAGATATCTTGCGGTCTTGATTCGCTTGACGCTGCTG: 119 a.u.
TCGCGAGAATTTGGGCACATGTGTGCCGGAATGTATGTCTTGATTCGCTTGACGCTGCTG: 234 a.u.
CTTCTGTAAATTTGAAGCGTGGGTGGACGCGCCCCGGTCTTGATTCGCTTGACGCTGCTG: 95.3 a.u.
TGCGCAACAACTTTTCACGTGAACTTATGTCTAGAAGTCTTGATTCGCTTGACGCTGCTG: 1170 a.u.
AGAATAGTTACGGATCAGGTGATGAGACGATAAAAAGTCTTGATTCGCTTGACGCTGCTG: 1120 a.u.
AAATTACTAAGTTCACACGTGTTTTACCCCGTATGAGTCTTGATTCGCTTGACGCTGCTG: 985 a.u.
ATATGATAAAATATAGATATATACCCTTAGATATCGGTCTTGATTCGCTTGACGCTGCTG: 102 a.u.
GCCACTGAGAATGAGCGCGTGGGACAGAAACGGTGGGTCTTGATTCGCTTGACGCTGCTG: 97.9 a.u.
CTGTTCCTAAGTTATTTCGTGGGACAAGCGGACATGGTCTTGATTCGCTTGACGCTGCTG: 81.3 a.u.
CGTCCTAGTGATTGCGATGTGGGTGCCATGAGGAAGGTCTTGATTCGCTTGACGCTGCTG: 93.4 a.u.

Set 3 — method: universal PBM; molecule type: double-stranded DNA, one strand shown; medium: in vitro; tested at: not given; direction: higher = stronger binding; endpoint: E-score
Target: Sal-like protein 4, full length isoform B (SALL4, Homo sapiens, UniProt Q9UJQ4-2, residues 1-616)
Notes: 8-mer, flanks averaged, mean of replicates
AAGCCTGG: -0.277
ACTCGTTG: 0.102
TGGACAAA: 0.0626
GTAGAAGA: -0.0927
CCAGGATA: -0.026
CACAGAGG: -0.163
AATGTACA: 0.209
AAATTACA: 0.317
ACTGATCC: -0.0368
AATCATTA: 0.295
CACGCGTC: -0.0178
AGCTCACG: -0.169
GAAGGGAA: -0.193
AAAATAGA: 0.329
CGATGTAC: 0.125
CTCAAAGC: -0.00347
CCGAACAG: -0.082
AGTATTAC: 0.285
CTGTAGAC: -0.00439
AATCGCTC: -0.13
AGGTACAT: 0.149
ATTCAACA: 0.123
AACGGAAA: 0.0592
GACAGCCC: -0.253
AAAAGGCA: 0.147

Set 4 — target: CCNE1, cyclin fold, Cln2 fusion (human); method: yeast growth competition, sequencing; medium: yeast; notes: weak parent motif; reference: not given; direction: higher = stronger binding; endpoint: normalised enrichment score
Starting sequence: MICAL3 docking peptide (human); LQLRRQLSFSEDS
LQLRRQLSFAEDS [S10A]: 0.52
LQLRRQLSFSLDS [E11L]: 1.26
LQLRIQLSFSEDS [R5I]: 0.181
LQLRSQLSFSEDS [R5S]: -0.12
LQLRRYLSFSEDS [Q6Y]: 0.48
LQLRRQFSFSEDS [L7F]: -0.185
LQLRRQMSFSEDS [L7M]: 0.26
LQLRRQLSFSESS [D12S]: 0.804
LQLRRQQSFSEDS [L7Q]: -0.00137
LQLRRMLSFSEDS [Q6M]: 0.73
LQLRRQLSFNEDS [S10N]: 0.922
LSLRRQLSFSEDS [Q2S]: 1.39
LQLRRQLEFSEDS [S8E]: 0.229
LVLRRQLSFSEDS [Q2V]: 1.19
LQLRRQGSFSEDS [L7G]: 0.103
LQLIRQLSFSEDS [R4I]: 0.906
LQLRRQLSFSGDS [E11G]: 0.793
LQLRRQLSFSYDS [E11Y]: 0.714
LALRRQLSFSEDS [Q2A]: 0.915
LQLRRQLSFMEDS [S10M]: 0.373
LQLERQLSFSEDS [R4E]: -0.287
LQLRRQLSLSEDS [F9L]: -0.173
LQLGRQLSFSEDS [R4G]: -0.029

For quick reference, copied from above (set 4):
LQLRRQLSLSEDS [F9L]: -0.173
LQLRRQFSFSEDS [L7F]: -0.185
LQLRRYLSFSEDS [Q6Y]: 0.48
LALRRQLSFSEDS [Q2A]: 0.915
LQLRRQLSFSYDS [E11Y]: 0.714
LQLIRQLSFSEDS [R4I]: 0.906
LQLRRQQSFSEDS [L7Q]: -0.00137
LQLRRQLSFMEDS [S10M]: 0.373
